Results gathered from unrelated publications.
Each numbered part is a random draw from the data of one study; scales do not carry over between parts. Values joined by “and” are separate records of one study, mostly repeats; a detail may differ.
Chain of UniProt P10721 (whole entry, unmodified, looked up): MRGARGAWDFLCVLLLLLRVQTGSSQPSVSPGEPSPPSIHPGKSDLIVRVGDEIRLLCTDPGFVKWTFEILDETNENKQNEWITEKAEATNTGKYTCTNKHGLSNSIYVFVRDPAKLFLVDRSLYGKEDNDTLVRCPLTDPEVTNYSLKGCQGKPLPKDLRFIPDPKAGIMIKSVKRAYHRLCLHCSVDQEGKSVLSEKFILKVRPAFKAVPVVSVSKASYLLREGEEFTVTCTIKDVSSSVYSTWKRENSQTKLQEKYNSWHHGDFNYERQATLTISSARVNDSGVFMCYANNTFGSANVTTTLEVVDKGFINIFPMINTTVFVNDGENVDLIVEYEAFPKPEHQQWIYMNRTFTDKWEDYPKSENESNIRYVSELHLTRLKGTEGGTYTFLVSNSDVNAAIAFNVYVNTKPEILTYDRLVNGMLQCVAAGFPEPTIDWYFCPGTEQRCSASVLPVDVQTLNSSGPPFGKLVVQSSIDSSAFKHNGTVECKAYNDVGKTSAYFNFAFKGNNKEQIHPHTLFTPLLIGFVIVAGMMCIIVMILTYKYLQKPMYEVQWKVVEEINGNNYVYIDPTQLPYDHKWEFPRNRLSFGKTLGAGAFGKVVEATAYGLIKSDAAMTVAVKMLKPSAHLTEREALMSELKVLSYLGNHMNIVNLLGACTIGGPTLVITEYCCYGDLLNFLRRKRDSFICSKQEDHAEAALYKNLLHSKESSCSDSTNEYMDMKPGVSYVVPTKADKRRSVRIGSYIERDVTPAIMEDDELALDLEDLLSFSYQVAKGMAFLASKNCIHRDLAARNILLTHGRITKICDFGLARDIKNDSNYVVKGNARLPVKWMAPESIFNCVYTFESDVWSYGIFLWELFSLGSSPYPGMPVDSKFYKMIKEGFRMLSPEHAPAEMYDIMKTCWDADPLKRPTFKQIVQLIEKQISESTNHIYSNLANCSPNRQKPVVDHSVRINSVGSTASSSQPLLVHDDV
Chain of UniProt Q13976 (whole entry, looked up): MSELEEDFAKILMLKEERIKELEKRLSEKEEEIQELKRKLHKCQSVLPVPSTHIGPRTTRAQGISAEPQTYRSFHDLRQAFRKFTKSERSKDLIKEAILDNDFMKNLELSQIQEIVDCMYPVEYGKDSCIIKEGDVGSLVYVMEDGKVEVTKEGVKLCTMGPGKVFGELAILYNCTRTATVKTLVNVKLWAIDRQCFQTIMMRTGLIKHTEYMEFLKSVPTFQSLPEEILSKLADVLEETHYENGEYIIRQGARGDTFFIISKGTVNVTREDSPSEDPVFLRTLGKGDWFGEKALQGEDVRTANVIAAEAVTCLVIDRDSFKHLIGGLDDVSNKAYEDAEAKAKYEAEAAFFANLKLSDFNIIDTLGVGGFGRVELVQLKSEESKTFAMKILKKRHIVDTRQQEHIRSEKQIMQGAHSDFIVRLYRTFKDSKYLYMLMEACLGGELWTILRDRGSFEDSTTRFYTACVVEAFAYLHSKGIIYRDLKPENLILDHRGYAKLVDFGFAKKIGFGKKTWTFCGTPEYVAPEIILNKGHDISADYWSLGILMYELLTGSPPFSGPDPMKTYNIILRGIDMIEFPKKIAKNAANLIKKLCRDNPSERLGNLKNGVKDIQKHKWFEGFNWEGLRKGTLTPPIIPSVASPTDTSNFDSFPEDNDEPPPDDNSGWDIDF
Chain of UniProt Q9Y4K4 (whole entry, looked up): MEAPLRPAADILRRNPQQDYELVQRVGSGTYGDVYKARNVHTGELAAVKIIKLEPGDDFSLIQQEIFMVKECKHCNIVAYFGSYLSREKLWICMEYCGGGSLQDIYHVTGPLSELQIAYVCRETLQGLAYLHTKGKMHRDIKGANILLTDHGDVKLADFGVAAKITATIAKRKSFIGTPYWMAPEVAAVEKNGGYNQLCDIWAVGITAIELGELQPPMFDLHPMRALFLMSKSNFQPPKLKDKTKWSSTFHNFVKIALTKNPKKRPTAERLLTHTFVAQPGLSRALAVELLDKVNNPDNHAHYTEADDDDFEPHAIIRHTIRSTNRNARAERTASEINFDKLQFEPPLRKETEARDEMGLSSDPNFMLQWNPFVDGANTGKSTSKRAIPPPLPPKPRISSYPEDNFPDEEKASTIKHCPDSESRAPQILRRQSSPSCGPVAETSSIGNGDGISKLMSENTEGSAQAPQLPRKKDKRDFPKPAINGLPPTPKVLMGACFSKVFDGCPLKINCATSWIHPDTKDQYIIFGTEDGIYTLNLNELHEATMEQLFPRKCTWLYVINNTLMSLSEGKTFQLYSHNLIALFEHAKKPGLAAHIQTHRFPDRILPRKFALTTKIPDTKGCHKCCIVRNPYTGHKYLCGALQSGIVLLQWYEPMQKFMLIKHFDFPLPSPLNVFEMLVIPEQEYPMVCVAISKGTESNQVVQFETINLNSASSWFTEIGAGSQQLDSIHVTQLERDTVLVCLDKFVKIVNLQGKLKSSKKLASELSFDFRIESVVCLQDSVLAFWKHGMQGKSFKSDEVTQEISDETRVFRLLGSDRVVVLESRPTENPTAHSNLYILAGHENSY
Chain of UniProt Q96BR1 (whole entry, looked up): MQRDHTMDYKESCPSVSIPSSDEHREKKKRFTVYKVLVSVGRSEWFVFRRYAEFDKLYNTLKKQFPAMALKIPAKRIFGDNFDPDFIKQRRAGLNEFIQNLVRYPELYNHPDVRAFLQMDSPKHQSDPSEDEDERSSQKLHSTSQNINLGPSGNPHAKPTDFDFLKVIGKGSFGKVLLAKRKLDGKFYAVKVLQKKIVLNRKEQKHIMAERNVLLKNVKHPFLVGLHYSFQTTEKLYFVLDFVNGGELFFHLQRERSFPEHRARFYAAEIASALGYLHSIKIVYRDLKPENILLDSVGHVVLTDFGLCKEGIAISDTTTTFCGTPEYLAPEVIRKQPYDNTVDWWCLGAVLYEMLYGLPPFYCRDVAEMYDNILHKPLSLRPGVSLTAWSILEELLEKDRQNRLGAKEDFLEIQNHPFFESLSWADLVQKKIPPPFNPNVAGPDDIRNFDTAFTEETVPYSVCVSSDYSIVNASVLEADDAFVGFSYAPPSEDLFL
Chain of UniProt Q9C098 (whole entry, looked up): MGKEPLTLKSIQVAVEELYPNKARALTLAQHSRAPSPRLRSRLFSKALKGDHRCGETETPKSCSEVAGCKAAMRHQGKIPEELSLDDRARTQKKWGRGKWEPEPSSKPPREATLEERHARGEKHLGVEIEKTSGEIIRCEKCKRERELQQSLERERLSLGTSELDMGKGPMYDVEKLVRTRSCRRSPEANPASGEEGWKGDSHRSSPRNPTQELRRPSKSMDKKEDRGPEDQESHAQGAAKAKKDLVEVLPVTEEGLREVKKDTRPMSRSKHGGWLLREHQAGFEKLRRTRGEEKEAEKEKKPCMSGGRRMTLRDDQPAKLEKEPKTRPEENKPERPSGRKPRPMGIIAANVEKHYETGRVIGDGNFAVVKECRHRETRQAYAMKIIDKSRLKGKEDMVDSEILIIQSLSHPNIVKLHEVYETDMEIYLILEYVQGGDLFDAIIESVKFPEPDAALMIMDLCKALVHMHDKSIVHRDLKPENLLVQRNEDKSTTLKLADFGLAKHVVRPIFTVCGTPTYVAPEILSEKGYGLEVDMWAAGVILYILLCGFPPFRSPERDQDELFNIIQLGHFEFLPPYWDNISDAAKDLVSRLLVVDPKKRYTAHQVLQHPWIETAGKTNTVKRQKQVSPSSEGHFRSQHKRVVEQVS

Series 1 — effect on: enzyme activity; action: inhibitor; tested at: 0.5 µM; reference: control
Target: Homeodomain-interacting protein kinase 3 (HIPK3, Homo sapiens, UniProt Q9H422)
Chain of UniProt Q9H422 (whole entry, looked up): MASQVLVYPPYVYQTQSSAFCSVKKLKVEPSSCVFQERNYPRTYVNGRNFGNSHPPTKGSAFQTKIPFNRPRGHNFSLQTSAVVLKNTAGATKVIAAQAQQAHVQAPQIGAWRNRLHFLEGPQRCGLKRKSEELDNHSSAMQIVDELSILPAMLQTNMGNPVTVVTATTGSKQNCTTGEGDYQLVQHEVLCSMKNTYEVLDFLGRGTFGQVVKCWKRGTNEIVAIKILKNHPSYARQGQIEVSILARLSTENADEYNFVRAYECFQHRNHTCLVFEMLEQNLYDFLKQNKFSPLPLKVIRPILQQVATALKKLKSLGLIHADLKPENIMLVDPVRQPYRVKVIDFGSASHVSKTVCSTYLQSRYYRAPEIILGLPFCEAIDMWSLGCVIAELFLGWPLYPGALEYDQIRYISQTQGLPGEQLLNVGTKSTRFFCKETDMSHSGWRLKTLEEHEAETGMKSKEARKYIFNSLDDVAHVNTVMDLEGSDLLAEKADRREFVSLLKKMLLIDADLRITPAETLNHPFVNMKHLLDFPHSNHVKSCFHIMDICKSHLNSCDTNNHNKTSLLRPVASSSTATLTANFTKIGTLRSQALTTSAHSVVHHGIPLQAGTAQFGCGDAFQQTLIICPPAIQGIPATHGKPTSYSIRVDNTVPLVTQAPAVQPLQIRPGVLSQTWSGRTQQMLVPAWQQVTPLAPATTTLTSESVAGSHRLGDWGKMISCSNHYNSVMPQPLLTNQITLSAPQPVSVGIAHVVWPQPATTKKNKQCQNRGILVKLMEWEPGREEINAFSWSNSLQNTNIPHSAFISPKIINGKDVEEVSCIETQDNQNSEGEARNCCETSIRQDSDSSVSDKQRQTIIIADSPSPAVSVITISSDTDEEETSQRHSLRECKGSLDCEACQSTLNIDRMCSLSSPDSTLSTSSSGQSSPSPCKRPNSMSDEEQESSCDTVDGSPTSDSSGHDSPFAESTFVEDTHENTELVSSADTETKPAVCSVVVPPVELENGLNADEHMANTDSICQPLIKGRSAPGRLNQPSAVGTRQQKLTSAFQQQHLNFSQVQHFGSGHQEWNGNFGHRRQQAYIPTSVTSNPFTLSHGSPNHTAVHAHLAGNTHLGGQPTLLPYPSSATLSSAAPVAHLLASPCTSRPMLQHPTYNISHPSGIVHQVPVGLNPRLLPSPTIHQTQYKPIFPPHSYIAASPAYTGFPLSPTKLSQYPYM
| Compound | remaining activity [%] |
| --- | --- |
| Cc1cn(-c2cc(NC(=O)c3ccc(C)c(Nc4nccc(-c5cccnc5)n4)c3)cc(C(F)(F)F)c2)cn1 | 99.8 |
| C[C@@H]1CCN(C(=O)CC#N)C[C@@H]1N(C)c1ncnc2[nH]ccc12 | 100 |
| O=C1C(Cl)=C(N2C(=O)CCC2=O)C(=O)c2ccccc21 | 112 |
| COc1cc2ncnc(Nc3cccc(Cl)c3)c2cc1OC | 98.9 |
| O=C1c2ccccc2-c2n[nH]c3cccc1c23 | 84.8 |
| O=C(Nc1cccc(Nc2nccc(Nc3cccc(C(F)(F)F)c3)n2)c1)C1CC1 | 104 |
| CCN(CC)C(=O)c1ccc(Nc2nc(OCC3CCCCC3)c3[nH]cnc3n2)cc1 | 96.4 |
| Cc1cc2ncc(-c3ccccc3)nc2cc1C | 94.4 |
| COc1cc2c(cc1OC)-c1[nH]nc(Nc3cccc(F)c3)c1C2 | 100 |
| c1ccc(-c2cnc(Nc3ccc(OCCN4CCCC4)cc3)s2)cc1 | 64.8 |
| O=c1cc(-c2cccc3c2Sc2ccccc2S3)oc(N2CCOCC2)c1 | 105 |
| N#Cc1c(NC(=O)c2cccc3ccccc23)sc2c1CCCC2 | 116 |
| Cc1nc2cc3nc(-c4cccs4)cnc3cc2n1C | 101 |
| Cn1nc2c3c(cccc31)C(=O)c1ccccc1-2 | 113 |
| CN([C@@H](Cc1ccc(OS(=O)(=O)c2cccc3cnccc23)cc1)C(=O)N1CCN(c2ccccc2)CC1)S(=O)(=O)c1cccc2cnccc12 | 110 |
| CCOc1nc(NC(=O)Cc2cc(OC)ccc2OC)cc(N)c1C#N | 113 |
| COc1cc2ncnc(Nc3ccc(O)c(Br)c3)c2cc1OC | 67.7 |
| CCN(CC)CCNC(=O)c1c(C)[nH]c(/C=C2\C(=O)Nc3ccc(F)cc32)c1C | 47.3 |
| CN(C)C[C@H]1CCn2c(c(C3=C(c4cn(C)c5ccccc45)C(=O)NC3=O)c3ccccc32)C1 | 111 |
| Ic1cccc(CSc2nnc(-c3ccncc3)o2)c1 | 99.1 |
| N#C/C(=C\c1ccc(O)c(O)c1)C(=O)NCc1ccccc1 | 96.6 |
| c1ccc(-c2[nH]ncc2-c2ccnc3ccccc23)nc1 | 97 |
| CCN(CC)CCNC(=O)c1c(C)[nH]c(/C=C2\C(=O)Nc3ccc(Cl)cc32)c1C | 50.8 |

Series 2 — species: human; matrix: microsomes or S9; tested at: 2 µM; time: 0.5 h
| Compound | remaining compound [%] |
| --- | --- |
| C[S+]([O-])c1nc2ccc(F)cc2c(-n2ccnc2)c1-c1ccc(Cl)cc1Cl (stereo not shown) | > 100 |
| CCC(CN1CCN(C)CC1)NC(=O)Cc1csc(Nc2ccccc2F)n1 (stereo not shown) | 50.6 |
| Cn1cc(-c2noc(C3CCCCC3)n2)ccc1=O | 48 |
| CC(C)CC1(C(=O)N2CCC(N(C)CC(=O)O)CC2)CCCC1 | 80.4 |
| COc1cc(=O)[nH]cc1C(=O)N1CCCCC1c1cc[nH]n1 (stereo not shown) | > 99 |
| N[C@@H](CC(=O)N1CCCN(Cc2ccccc2)CC1)Cc1cc(F)c(F)cc1F | 4.44 |

Series 3 — method: phase 2a trial; species: idiopathic pulmonary fibrosis patients
SMILES: CC(C)n1cnc(-c2ccc(F)cc2)c1-c1ncc(C(=O)Nc2ccc(N3CCN(C)CC3)cc2)[nH]1
| setting | patients with cardiac failure [%] |
| --- | --- |
| 30 mg once daily, adverse event grade 1 | 0 |
| 60 mg once daily, adverse event grade 3 | 0 |
| 30 mg once daily, adverse event grade 2 | 0 |
| 30 mg once daily, adverse event grade 4 | 0 |

Series 4 — effect on: cell-free assay; method: competition with immobilised ligand; tested at: 1 µM
Structure (SMILES): CN(C)CC#Cc1ccc(OCCCc2sc(N3CCc4cccc(C(=O)Nc5nc6ccccc6s5)c4C3)nc2C(=O)O)c(F)c1
| target | remaining binding |
| --- | --- |
| KIT (Homo sapiens, UniProt P10721, T670I/V559D) | 95% |
| Tyrosine-protein kinase ABL1, non-phosphorylated (ABL1, Homo sapiens, UniProt P00519, H396P) | 100% |
| MAP4K5 (Homo sapiens, UniProt Q9Y4K4) | 91% |
| EGFR (Homo sapiens, UniProt P00533, del752-759) | 100% |
| PRKG1 (Homo sapiens, UniProt Q13976) | 100% |
| Tyrosine-protein kinase ABL1, non-phosphorylated (ABL1, Homo sapiens, UniProt P00519) | 100% |
| SGK3 (Homo sapiens, UniProt Q96BR1) | 100% |
| NLK (Homo sapiens, UniProt Q9UBE8) | 80% |
| Tyrosine-protein kinase ABL1, phosphorylated (ABL1, Homo sapiens, UniProt P00519, M351T) | 91% |
| DCLK3 (Homo sapiens, UniProt Q9C098) | 100% |
| KIT (Homo sapiens, UniProt P10721, D816V) | 100% |

Mixed results
| Compound | tested on | assay | test system | setting | scale | measurement | value |
| --- | --- | --- | --- | --- | --- | --- | --- |
| C=C(F)C(=O)N1CCN(c2nc(OC[C@@H]3CCCN3C)nc3c2CCN(c2cccc4cccc(Cl)c24)C3)C[C@@H]1CC#N | GTPase HRas (HRAS, Homo sapiens, UniProt P01112, G12V) | binding, NanoBRET | HEK293 (live) | 0.8239 µM | lower = stronger binding | target engagement | 115% and 118% and 119% |
| COc1cc(C(=O)OCCCN2CCCN(CCCOC(=O)c3cc(OC)c(OC)c(OC)c3)CC2)cc(OC)c1OC | – | – | naive mice, mixed sexes | intrathecal, 100 nmol, 60 min | – | rotarod fall latency | 82 s and 96 s and 80 s and 77 s and 68 s and 86 s |

Excerpt of the above (series 1):
| Compound | remaining activity [%] |
| --- | --- |
| N#Cc1c(NC(=O)c2cccc3ccccc23)sc2c1CCCC2 | 116 |
| O=C1C(Cl)=C(N2C(=O)CCC2=O)C(=O)c2ccccc21 | 112 |
| Ic1cccc(CSc2nnc(-c3ccncc3)o2)c1 | 99.1 |
| c1ccc(-c2[nH]ncc2-c2ccnc3ccccc23)nc1 | 97 |
| O=c1cc(-c2cccc3c2Sc2ccccc2S3)oc(N2CCOCC2)c1 | 105 |
| Cc1cn(-c2cc(NC(=O)c3ccc(C)c(Nc4nccc(-c5cccnc5)n4)c3)cc(C(F)(F)F)c2)cn1 | 99.8 |
